Published values gathered from unrelated publications.
Compare with care: the assays were run in different laboratories. Values joined by “and” are separate records of one study, mostly repeats; a detail may differ. ± marks the error that the study gave.

CCO — time to maximum DBP change (supine; median): 1.97 h
OC(CCN1CCCCC1)(c1ccccc1)C1CC2C=CC1C2 (stereo not drawn) — change, Delta EEG power, in O2-Pz (resting-state EEG; healthy elderly humans; oral, 2 mg, eyes open, LS mean; relative to: baseline): 35.1%
CN(C(=O)n1cnc(-c2ccc[n+]([O-])c2)c1)C1CCCCC1 — AUC(0-tau) (measured: LEA; human, plasma; 5 mg once daily, day 10): 143 ng·h/mL
COc1ccc(-c2cncc(N[C@@H](C)c3cccc(NC(=O)c4cncc(C)c4)c3)n2)cc1OC — fold change (measured: rno-miR-381-3p; rat SU5416/hypoxia model, lung; dose not given; relative to: SU5416/hypoxia vehicle): 12.7
[Cl-].[Cl-].[Pt+2].[Ru+2].c1ccc(-c2nccnc2-c2ccccn2)nc1.c1cnc2c(c1)ccc1cccnc12.c1cnc2c(c1)ccc1cccnc12 — negative activation entropy (chloride substitution, UV-vis kinetics; aqueous buffer; concentration not given, pH 7.2, second substitution step, added: guanosine 5'-monophosphate): 143 ± 9 J/(mol·K)
CC(C)NCC(O)c1ccc(O)c(O)c1 (stereo not drawn) — sarcomere length (ventricular cardiomyocytes, C57BL/6 mouse; dose not given, 0.028 s): 1.72 µm
N#Cc1ccc(C(c2ccc(C#N)cc2)n2cncn2)cc1 — estradiol concentration (ELISA; human patients, tumour homogenate; 15 mg daily): 21.5 ± 8.02 pg/mL
O=C1N(Cc2ccccc2Cl)c2ccccc2C12NN=C(c1ccccc1)S2 (stereo not drawn) — T/C (SK-BR-3 xenograft, mouse; intraperitoneal, 925.5 mg/kg total, subcutaneous xenograft; relative to: vehicle): > 100%
Cc1n[nH]c2ccc(-c3cc(OC[C@@H](N)Cc4ccccc4)cnc3-c3ccoc3)cc12 — log2 fold change (kinase binding, competitor, MIB/MS competition, measured: HST7; Candida albicans cell lysate; 100 nM; relative to: DMSO): 0.106
C[C@H]1C[C@H]2CSC(N)=N[C@@]2(c2nc(NC(=O)c3ccc(OC(F)F)cn3)cs2)CO1 — percent change from baseline (measured: Aβ1-40; healthy adults, plasma; 3 mg single dose, 4 h post-dose; relative to: placebo): -41.1%
COC(=O)c1c(C)[nH]c(C)c1C(=O)c1ccccc1Cc1ccccc1 — serotonin-induced response (high-content microscopy; DRG neurons, rat; dose not given, unit not given, added: DAMGO 0.03; relative to: no DAMGO): 1 and 0.851 and 1.04 and 1.05
CN(C)C(=O)c1cc2cnc(Nc3ccc(N4CCNCC4)cn3)nc2n1C1CCCC1 — GSEA enrichment score (RNA-seq GSEA, measured: HALLMARK_APICAL_SURFACE; MB002 tumour; concentration not given, in vivo; relative to: vehicle, direction not given): 0.362
COc1ccccc1[C@H](Cn1c(=O)n(C(C)(C)C(=O)O)c(=O)c2c(C)c(-c3ncco3)sc21)OC1CCOCC1 — blood HDL level (human; 50 mg, post-treatment): 43.9 ± 10.5 mg/dL
COc1ccc(-c2ccc3c(N4CCOC[C@@H]4C)nc(N4CCOC[C@@H]4C)nc3n2)cc1COC(=O)CCOCCOCCOCCONC(=O)c1ccc(F)c(F)c1Nc1ccc(I)cc1F — pERK1/2 level (flow cytometry; JAK2V617F myelofibrosis mouse, splenocytes; 40 mg/kg daily, seven days): decreased
CCO[C@H]1CCN(Cc2c(OC)cc(C)c3[nH]ccc23)[C@H](c2ccc(C(=O)O)cc2)C1 — C3d-positive type III RBCs (PNH patients, blood; oral, 50 mg then 200 mg, week 8, mean percent change; relative to: baseline): -94.6%
C[C@@H](O)CCOC(=O)C[C@@H](C)O — metabolite level (measured: C18 acylcarnitine; human, plasma; 60 min, log2-transformed values): -4.59 ± 0.4 µmol/L
CCOc1c([C@H](C)n2nc(C)c3c(N)ncnc32)cc(Cl)c(F)c1[C@@H]1CNC(=O)C1 — plasma protein level change (Olink proximity extension proteomics, measured: IL10; human FL or MZL patients, plasma; dose not given, week 8; relative to: baseline): -51%
Cc1ccc(C(=O)OCc2ccc([C@@H](CN)C(=O)Nc3ccc4cnccc4c3)cc2)c(C)c1 — IOP (tonometry; Macaca cyclopis, ocular normotensive; ocular, 0.02%, 48 h): 18.4 mmHg
COc1cc(-c2ccccc2)ncc1C(=O)Nc1ccc2c(=O)[nH]c(-c3ccc(C(C)(C)O)cc3)nc2c1 — normalized enrichment score (RNA-seq GSEA, measured: HALLMARK_FATTY_ACID_METABOLISM; organoids, small intestinal, Apc Q1405X, mouse; dose not given, 3 days, knockout organoids; relative to: DMSO, direction not given): 2.12
Cc1ccc(C(=O)Nc2ccnc(S(N)(=O)=O)c2)c(N2CCCC(F)(F)CC2)n1 — conduction velocity (Macaca mulatta, C-nociceptors; intravenous, 0.6 mg/kg bolus then 0.8 mg/kg/h, 30 min): 100.3 ± 0.89 % baseline
CC(C)[C@H](C(=O)Nc1ccc(C(=O)NO)cc1)c1ccccc1 — tumour volume (volumetric MRI; human, right internal auditory canal; dose not given, 51 days): 18.6 cm³
N#Cc1ccc2c(c1)[C@H]1CCCN(C(=O)c3ccc4[nH]cnc4c3)[C@H]1C2 — systolic blood pressure change (human, Phase II trial; oral, 240 mg once daily, day 28, adjusted mean, SE): -2.3 mmHg
CC(C)C[C@@H](NC(=O)[C@H](C)NC(=O)CNC(=O)[C@@H](NC=O)C(C)C)C(=O)N[C@@H](C)C(=O)N[C@@H](C(=O)N[C@H](C(=O)N[C@@H](C(=O)N[C@@H](Cc1c[nH]c2ccccc12)C(=O)N[C@H](CC(C)C)C(=O)N[C@@H](Cc1c[nH]c2ccccc12)C(=O)N[C@H](CC(C)C)C(=O)N[C@@H](Cc1c[nH]c2ccccc12)C(=O)N[C@H](CC(C)C)C(=O)N[C@@H](Cc1c[nH]c2ccccc12)C(=O)NCCO)C(C)C)C(C)C)C(C)C — EC50 (H+/Na+ transport, pyranine pH-gradient; EYPC/cholesterol LUVs 2:1): 45.6 ± 10.4 nM
N#Cc1ccc2c(-c3ccncc3)c(-c3ccc(F)cc3)nn2c1 — log2 fold change (kinase binding, competitor, MIB/MS competition, measured: YAK1; Candida albicans cell lysate; 100 nM; relative to: DMSO): 0.215
NC(=O)c1cnc2[nH]ccc2c1N[C@@H]1[C@@H]2CC3C[C@H]1C[C@@](O)(C3)C2 — percent change (CD8+ naive T cells, flow cytometry; Caucasian humans, peripheral blood; 200 mg single dose; relative to: baseline): -0.75%
O=C1CCc2ccc(OCCCCN3CCN(c4cccc(Cl)c4Cl)CC3)cc2N1 — stopping or switching (patients CYP2D6 IM; 3 months): 18%
CCCCC1(CCCC)CN(c2ccccc2)c2cc(SC)c(OCC(=O)N[C@@H](C(=O)NCC(=O)O)c3ccccc3)cc2S(=O)(=O)C1 — Shp mRNA level (qPCR; male mice, ileum; 1 mg/kg, after mixed meal tolerance test; relative to: PBS): no effect
NCC(=O)Nc1cncc(-c2nn3c(=O)cc(N4CCNCC4)nc3s2)c1 — inhibition of platelet aggregation (ADP-induced platelet aggregation, light transmission aggregometry; human stable CAD patients on aspirin, platelets ex vivo; 0.05 mg/kg, 360 min post dose, added: 20 µM ADP; relative to: placebo difference): 4.63%
Cn1cc(Nc2nccc(-c3ccc4c(c3)CN(C3COC3)CC[C@H]4NC(=O)c3cn(C(C)(C)C)nn3)n2)cn1 — pathway activation z-score (measured: pyrimidine ribonucleotides interconversion; splenic B cells, mice; 30 mg/kg, IgD-activated in vivo; relative to: vehicle, direction not given): 0
N#Cc1ccc2c(c1)[C@H]1CCCN(C(=O)c3ccc4[nH]cnc4c3)[C@H]1C2 — total urinary corticosteroid excretion (T2DM patients with overweight or obesity, urine; oral, 10 mg, day 1, 0-24 h, multiple dosing, adjusted geometric mean; relative to: baseline day -1, -24-0 h): 155%
COc1cc2cc(-c3ccc(CC(=O)Nc4cc(C(C)(C)C(F)(F)F)no4)cn3)cnc2cc1OC — progressive disease as best response (RECIST v1.1; RET-altered advanced solid tumour patients; oral, 20 mg once daily, phase I): 100%
CCCCC1(CCCC)CN(c2ccccc2)c2cc(SC)c(OCC(=O)N[C@@H](C(=O)NCC(=O)O)c3ccccc3)cc2S(=O)(=O)C1 — plasma C4 (measured: 7α-hydroxy-4-cholesten-3-one; human, plasma; 5 mg once daily, day 1): 25.8 ng/mL
Cc1c(NC(=O)c2cccnc2)c(=O)n(-c2ccccc2)n1C — ejection fraction (echocardiography; Dmd C3333Y mouse; dose not given): 56.4% and 58.2% and 59.1% and 52.5% and 55.7%
C[C@H]1O[C@@H](O[C@H]2CC[C@@]3(C)[C@@H](CC[C@]4(C)[C@@H]3C=C[C@]35OC[C@@]6(CCC(C)(C)C[C@H]63)[C@@H](O)C[C@]54C)[C@]2(C)CO)[C@H](O)[C@@H](O[C@@H]2O[C@H](CO)[C@@H](O)[C@H](O)[C@H]2O)[C@H]1O — protein level (Western blot, measured: PGC-1α; mice, normal control diet, liver; dose not given, high dose, unit not given; relative to: β-actin): 0.802 and 0.961 and 1.47
OC[C@H]1O[C@@H](c2ccc(F)c(Cc3cc4ccccc4s3)c2)[C@H](O)[C@@H](O)[C@@H]1O — time glucose at most 70 mg/dL (continuous glucose monitoring; Japanese type 1 diabetes patients; 100 mg/day, day 14; relative to: baseline): -0.15 ± 4.97 % change
CS(=O)(=O)CCNCc1ccc(-c2ccc3ncnc(Nc4ccc(OCc5cccc(F)c5)c(Cl)c4)c3c2)o1 — ED50 (tumour growth; LoVo, mouse, subcutaneous LoVo xenograft; oral, 21 days daily, colon cancer): 186 mg/kg
CC(c1cc2ccccc2s1)N(O)C(N)=O (stereo not drawn) — LTB4 isomers level (human blood; 3 µM, added: A23187): 115 ± 41 pg/mL
COc1cc(Nc2ncc3c(n2)-c2ccc(Cl)cc2C(c2c(F)cccc2OC)=NC3)ccc1C(=O)O — median response score (female NOD/scid mice, ALL-8 T-cell ALL xenograft; 2.6 mg/kg, 5 days weekly, score scale 0 to 10; direction not given): 2
CCN(Cc1nc2c(N)nc3cc(-c4cc[nH]n4)ccc3c2[nH]1)C(C)=O — fold change (Luminex, measured: IL-6; cancer patients, serum; 2000 µg monotherapy, first 24 h; relative to: baseline): 9.1
O[C@H]1CCCN[C@@H]1CCCn1cnc2c(Cl)c(Cl)ccc21 — AUC(0-tau) (ELISA, measured: Pro-C6; healthy human volunteers, serum; intraduodenal, 25 mg twice daily, day 14, multiple ascending dose): 92.9 ng·h/mL
CN[C@@H]1COc2c(S(=O)(=O)NC(=O)Nc3c4c(cc5c3CCC5)CCC4)cnn2C1 — inhibition (measured: IL-1β; human participants, whole blood ex vivo; 900 mg twice daily, multiple doses, 4 h, added: LPS/ATP; relative to: baseline): 99.8%
C[C@H](Oc1ccc(Br)cc1-c1ccon1)C(=O)O — difference from placebo (first response peak; human, tibialis anterior muscle; 100 mg, 30 Hz, single ascending dose): 18.2%
c1ccc(-c2n[nH]cc2-c2ccnc3ccccc23)nc1 — log2 fold change (kinase binding, competitor, MIB/MS competition, measured: CAK1; Candida albicans cell lysate; 10 µM; relative to: DMSO): 0.749
[Cl-].[Cl-].[Pt+2].[Ru+2].c1ccc(-c2nc3cc4ccccc4cc3nc2-c2ccccn2)nc1.c1cnc2c(c1)ccc1cccnc12.c1cnc2c(c1)ccc1cccnc12 — negative activation entropy (chloride substitution, UV-vis kinetics; aqueous buffer; concentration not given, pH 7.2, second substitution step, added: L-methionine): 168 ± 11 J/(mol·K)
O=C(O)CNC(=O)Cc1ccccc1 — sarcomere length (ventricular cardiomyocytes, C57BL/6 mouse; dose not given, 0.364 s): 1.72 µm
CSCCNc1nc(SCCC(F)(F)F)nc2c1ncn2[C@@H]1O[C@H](COP(=O)(O)OP(=O)(O)C(Cl)(Cl)P(=O)(O)O)[C@@H](O)[C@H]1O — platelet aggregation (ADP-induced platelet aggregation, Multiplate; human patients, whole blood; 1 h): 25.9 ± 13.6 U
N#Cc1ccn2c(-c3ccncc3)c(-c3ccc(F)cc3)nc2c1 — log2 fold change (kinase binding, competitor, MIB/MS competition, measured: PBS2; Candida albicans cell lysate; 10 µM; relative to: DMSO): -0.334
C=CCn1c(=O)c2cnc(Nc3ccc(N4CCN(C)CC4)cc3)nc2n1-c1ccc2c(n1)[C@@](O)(CC)CC2 — tumour volume difference (COLO 205 xenograft, BALB/c nude mice; oral, 60 mg/kg once daily x 22, day 21): 830 ± 40.3 mm3

Some of these lines once more:
CN(C(=O)n1cnc(-c2ccc[n+]([O-])c2)c1)C1CCCCC1 — AUC(0-tau) (measured: LEA; human, plasma; 5 mg once daily, day 10): 143 ng·h/mL
COc1ccc(-c2cncc(N[C@@H](C)c3cccc(NC(=O)c4cncc(C)c4)c3)n2)cc1OC — fold change (measured: rno-miR-381-3p; rat SU5416/hypoxia model, lung; dose not given; relative to: SU5416/hypoxia vehicle): 12.7
[Cl-].[Cl-].[Pt+2].[Ru+2].c1ccc(-c2nccnc2-c2ccccn2)nc1.c1cnc2c(c1)ccc1cccnc12.c1cnc2c(c1)ccc1cccnc12 — negative activation entropy (chloride substitution, UV-vis kinetics; aqueous buffer; concentration not given, pH 7.2, second substitution step, added: guanosine 5'-monophosphate): 143 ± 9 J/(mol·K)
CC(C)NCC(O)c1ccc(O)c(O)c1 (stereo not drawn) — sarcomere length (ventricular cardiomyocytes, C57BL/6 mouse; dose not given, 0.028 s): 1.72 µm
N#Cc1ccc(C(c2ccc(C#N)cc2)n2cncn2)cc1 — estradiol concentration (ELISA; human patients, tumour homogenate; 15 mg daily): 21.5 ± 8.02 pg/mL
O=C1N(Cc2ccccc2Cl)c2ccccc2C12NN=C(c1ccccc1)S2 (stereo not drawn) — T/C (SK-BR-3 xenograft, mouse; intraperitoneal, 925.5 mg/kg total, subcutaneous xenograft; relative to: vehicle): > 100%
